Measured values from different studies.
Each line is one published result; not all experiments were run side by side. ± marks the error that the study gave.
Organism: Salmonella typhimurium

For `CC(C)N(N=O)C(C)C`, “revertant colonies per plate” read 26 ± 7 (mutagenicity, Ames plate incorporation; TA1535; 1500 µg/plate, without S9, methanol).
`O=[N+]([O-])c1ccc(N2CCC(NCCC(O)c3ccc(F)c4ccccc34)CC2)c(C(F)(F)F)c1` (stereo not drawn) gave a survival of 97% (SOS/umu test; TA1535/pSK1002, TGA medium; 7.63e-06 mg/mL, 4 h, added: 10% rat liver S9).
`N#C[C@@]1(n2ccc(N)nc2=O)O[C@H](CO)[C@@H](O)[C@H]1O` gave a viability of 114% (TA1535; 600 nM, without S9).
For `O=[N+]([O-])c1ccc(N2CCN(CCC(O)c3ccc(F)cc3)CC2)c(C(F)(F)F)c1` (stereo not drawn), the induction factor was 1 (genotoxicity, SOS/umu test; TA1535/pSK1002; 0.031 mg/mL, 4 h, without S9, lower range).
For `CN(N=O)c1ccc(F)cc1`, “revertant colonies per plate” read 7 ± 3 (mutagenicity, Ames plate incorporation; TA1537; 2500 µg/plate, 3 d, without S9, methanol).
`COc1cccc(-c2n[nH]c(SCc3ccccn3)n2)c1OC` — result for “revertant colonies per plate”: 7 (Ames preincubation; TA98; 1.0 mg per plate, added: rat liver S9).
`O=NN1CCN(C2CCCC2)CC1` — result for “revertant colonies per plate”: 24.7 ± 2 (mutagenicity, Ames plate incorporation; TA1535; 5000 µg/plate, 3 d, without S9, methanol).
`Cc1cc(C(=O)NC(C)(C)COc2cccc3c2C(N)=NS(=O)(=O)N3)cc(C)n1` gave a revertant ratio of 1.1 (Ames test, initial; TA100; 50.0 µg/plate; relative to: solvent control).
`Fc1ccc(C2=CCNCC2)cc1` gave a survival of 80.3% (SOS/umu test; TA1535/pSK1002; 0.5 mg/mL, 4 h, with S9, full range).
For `CC(=O)N1CCC(C(=O)N2CCN3C(=O)c4cc(-c5ccccc5)ccc4NC(=O)C3C2)CC1` (stereo not drawn), “revertants per plate” read 8.5 (TA1535; 158 µg/plate, added: rat liver S9).
With `OC(CCN1CC=C(c2ccc(F)cc2)CC1)c1ccc(F)c2ccccc12` (stereo not drawn) the survival was 27.2% (SOS/umu test; TA1535/pSK1002; 0.063 mg/mL, 4 h, without S9, lower range).
For `CN(CC(C)(C)C)N=O`, “revertant colonies per plate” read 13 ± 4 (mutagenicity, Ames plate incorporation; TA1537; 50 µg/plate, without S9, methanol).

Excerpt of the above:
With `OC(CCN1CC=C(c2ccc(F)cc2)CC1)c1ccc(F)c2ccccc12` (stereo not drawn) the survival was 27.2% (SOS/umu test; TA1535/pSK1002; 0.063 mg/mL, 4 h, without S9, lower range).
